Published values from different studies.
Compare with care: the assays were run in different laboratories. Numbers after ± are the reported error.

| Structure (SMILES) | cell line | test | system | setting | scale | quantity | result |
| --- | --- | --- | --- | --- | --- | --- | --- |
| CCCCCCCCCCCCCC(=O)NCC(=O)N[C@@H](CCCNC(=N)N)C(=O)N[C@@H](Cc1c[nH]c2ccccc12)C(=O)N[C@@H](CCCCN)C(=O)N[C@H](C(=O)N[C@@H](Cc1ccccc1)C(=O)N[C@@H](CCCCN)C(=O)N[C@@H](CCCCN)C(=O)N[C@H](C(=O)N[C@@H](CCC(=O)O)C(=O)N[C@@H](CCCCN)C(=O)N[C@H](C(=O)NCC(=O)N[C@@H](CCC(N)=O)C(=O)N[C@@H](CC(N)=O)C(=O)N[C@H](C(=O)N[C@@H](CCCNC(=N)N)C(=O)N[C@@H](CC(=O)O)C(=O)NCC(=O)N[C@H](C(=O)N[C@H](C(=O)N[C@@H](CCCCN)C(=O)N[C@@H](C)C(=O)NCC(=O)N1CCC[C@H]1C(=O)N[C@@H](C)C(=O)N[C@H](C(=O)N[C@@H](C)C(=O)N[C@H](C(=O)N[C@H](C(=O)NCC(=O)N[C@@H](CCC(N)=O)C(=O)N[C@@H](C)C(=O)N[C@@H](C)C(=O)N[C@H](C(=O)N[C@H](C(N)=O)[C@@H](C)CC)[C@@H](C)O)C(C)C)C(C)C)C(C)C)C(C)C)[C@@H](C)CC)[C@@H](C)CC)C(C)C)[C@@H](C)CC)[C@@H](C)CC | K562/MDR | Western blot, refers to: procaspase 3 | – | 2 µM, 16 h | – | procaspase activation | ~55% |
| CC(C)CC(O)(CC(C)C)c1cn(C(=O)N2CCCC2)nn1 | mouse T-cells | SILAC proteomics, refers to: PTPN18 | – | 1 nM, 6 h, unit not given | baseline: DMSO | protein level | 0.97 ± 0.09 |
| COCCOCCOCCOc1ccc(-n2cc(CCCN(CCNc3ccnc4cc(Cl)ccc34)C(=O)CCC(=O)OC3OC4OC5(C)CCC6C(C)CCC(C3C)C46OO5)nn2)cc1 (centres unmarked) | MOLT-4 | cell growth or viability, resazurin | – | 10 µM, 48 h | – | inhibition | 33.3% |
| CC(C)C[C@@H]1NC(=O)[C@H](CC(C)C)NC(=O)[C@H](CC(N)=O)NC(=O)[C@@H]2CCCN2C(=O)[C@H](CC(C)C)NC(=O)[C@H](CC(C)C)NC(=O)[C@H](CC(C)C)NC(=O)[C@@H](NC(=O)[C@H](CO)NC(=O)[C@H](CC(N)=O)NC(=O)[C@@H](N)C(C)C)CSSC[C@@H](C(=O)NCC(=O)N[C@@H](CC(=O)O)C(=O)N[C@@H](CC(=O)O)C(=O)N[C@@H](CCCCNC(=O)CCCC[C@@H]2SC[C@@H]3NC(=O)N[C@@H]32)C(=O)NCCCCCC(=O)NCCCCCC(=O)NCCCCCC(=O)NCCCCCC(=O)NCCCCCC(=O)N[C@@H](CCCCNC(=O)CCCCc2cn(CCCC[C@H](NC(=O)N[C@@H](CCC(=O)O)C(=O)O)C(=O)O)nn2)C(=O)NCC(N)=O)NC(=O)CNC1=O | IFN-gamma-primed U-937 | phagocytosis of PSMA-coated beads | – | – | – | EC50 | 20 to 30 nM |
| C[C@@H]1N=C(c2ccccc2)c2cc(C#CCCCC(=O)NO)ccc2N(C)C1=O | NB4 | annexin V/PI flow cytometry | – | 2.5 µM, 48 h | – | apoptotic cells | ~90% |
| CSCC[C@H](NC(=O)[C@H](CC(C)C)NC(=O)CNC(=O)[C@H](Cc1ccccc1)NC(=O)[C@H](Cc1ccccc1)NC(=O)[C@H](CCC(N)=O)NC(=O)[C@H](CCC(N)=O)NC(=O)[C@@H]1CCCN1C(=O)[C@H](CCCCN)NC(=O)[C@@H]1CCCN1C(=O)[C@@H](N)CCCNC(=N)N)C(N)=O | rat mast cells | patch-clamp capacitance | – | concentration not given, 15 to 20 min | – | degranulated cells | 66% |
| Cc1ccc2ccc3ccc(C)nc3c2n1.O.[99Tc+].[C-]#[O+].[C-]#[O+].[C-]#[O+] | HeLa | – | – | added: 3-methyladenine | – | IC50 change | no effect |
| NC1CCCCC1N.O=C1[O][Pt]([O]C(=O)c2ccc(P(c3ccccc3)c3ccccc3)cc2)([O]C(=O)c2ccc(P(c3ccccc3)c3ccccc3)cc2)[O]C1=O.[Cl][Au].[Cl][Au] | HUVEC | tube formation | – | IC10, 16 h | – | tube length disruption | 24.4% |
| CC(=O)N[C@@H](CCCNC(=N)N)C(=O)N[C@@H](CCCNC(=N)N)C(=O)N[C@@H](CCCNC(=N)N)C(=O)N[C@@H](CCCNC(=N)N)C(=O)N[C@@H](CCCNC(=N)N)C(=O)N[C@@H](CCCNC(=N)N)C(=O)N[C@@H](CCCNC(=N)N)C(=O)N[C@@H](CCCNC(=N)N)C(=O)N[C@@H](CCCNC(=N)N)C(=O)N[C@@H](CCCNC(=N)N)C(=O)NCC(=O)N[C@@H](COP(=O)(O)O)C(=O)N1CCC[C@H]1C(=O)N[C@H](C(=O)N[C@@H](Cc1ccccc1)C(=O)O)[C@@H](C)O | HeLa | co-immunoprecipitation | cytoplasmic fraction | up to 100 µM, added: with or without irradiation 10 Gy | – | BRCA1-Abraxas interaction | no effect |
| C[C@H]1O[C@@H]2C3=C(O[C@]2(C)[C@@]1(O)C=O)C(=O)c1c(O)cccc1C3=O | A549 and HFF | MTT | – | – | baseline: CC50 HFF over EC50 A549 | selectivity index | 2.16 |
| CCN(CC)CCOc1ccc(-c2nnn(Cc3ccc(OC)cc3)c2N)cc1 | HEI-193 | western blot, refers to: SOX2 | – | concentration not given, 7 days | – | protein level | decreased |
| CNC(=O)c1cc(Oc2ccc(NC(=O)c3ccc(-c4ccc(OC(=O)CCC(=O)OC5OC6OC7(C)CCC8C(C)CCC(C5C)C68OO7)cc4)cn3)cc2)ccn1 (centres unmarked) | Hep3B and LO2 | cell viability, MTT | – | 72 h | baseline: IC50 LO2 over IC50 Hep3B | selectivity ratio | 6.3 |
| CC1CCC2C(C)C(OC(=O)CCC(=O)N(CCCc3cn(-c4ccc([N+](=O)[O-])cc4)nn3)CCNc3ccnc4cc(Cl)ccc34)OC3OC4(C)CCC1C32OO4 (centres unmarked) | MOLT-4 | cell growth or viability, resazurin | – | 10 µM, 48 h | – | inhibition | 33.4% |
| CC[C@H](C)[C@H](NC(C)=O)C(=O)N[C@@H](CC(N)=O)C(=O)N[C@@H](Cc1c[nH]c2ccccc12)C(=O)N[C@@H](Cc1c[nH]cn1)C(=O)N[C@@H](C)C(=O)N[C@H](C(=O)N[C@@H](C)C(=O)N[C@@H](Cc1c[nH]cn1)C(=O)N[C@@H](CCSC)C(=O)N[C@@H](C)C(=O)N[C@@H](CCCCN)C(=O)N[C@@H](CCCCN)C(=O)N[C@@H](CC(C)C)C(=O)N[C@@H](CC(C)C)C(N)=O)[C@@H](C)CC | human erythrocytes | hemolysis | – | no metal added | – | Hill coefficient | 1.9 ± 0.2 |
| CNC(=O)c1cc(Oc2ccc(NC(=O)c3ccc(-c4ccccc4OC(=O)CCC(=O)OC4OC5OC6(C)CCC7C(C)CCC(C4C)C57OO6)cn3)cc2)ccn1 (centres unmarked) | Hep3B and LO2 | cell viability, MTT | – | 72 h | baseline: IC50 LO2 over IC50 Hep3B | selectivity ratio | > 11.5 |
| CCCC[C@H](O)C[C@@H](C)C[C@H](NC(=O)[C@@H]1C[C@H](C)CN1C(=O)/C=C/[C@@H](C)CC)C(=O)N[C@H](C(=O)NC(C)(C)C(=O)N[C@@H](CC(C)C)C(=O)N[C@@H](CC(C)C)C(=O)NC(C)(C)C(=O)NC(C)(C)C(=O)NCCC(=O)N[C@@H](C)CNC)[C@H](O)C(C)C | SUM185PE | cell growth or viability, SRB | – | 48 h | – | GI50 | 2.1 nM |

| Structure (SMILES) | cell line | test | system | setting | scale | quantity | result |
| --- | --- | --- | --- | --- | --- | --- | --- |
| [Cl-].[Cl][Ru-4]123([n+]4ccccc4-c4cc(-c5ccccc5)cc([n+]41)-c1cccc[n+]12)[n+]1ccc(-c2ccccc2)c2ccc4c(-c5ccccc5)cc[n+]3c4c21 | HEL 299 and A549 | resazurin | – | – | baseline: IC50 HEL 299 over A549 | selectivity index | 13.3 |
| C#CCCCN(CCNc1ccnc2cc(Cl)ccc12)C(=O)CCC(=O)O[C@@H]1O[C@@H]2O[C@@]3(C)CC[C@H]4[C@H](C)CCC([C@H]1C)[C@@]24OO3 (some centres unmarked) | CCRF-CEM | cell growth or viability, resazurin | – | 10 µM, 48 h | – | inhibition | 43.5% |
| CC/C=C\C/C=C\C/C=C\C/C=C\C/C=C\C/C=C\CCC(=O)Nc1ccn(C2OC(CO)C(O)C2(F)F)c(=O)n1 (centres unmarked) | RPMI-8226 | NCI60 screen | – | – | – | CC50 | > 100000 nM |
| C[C@H](NC(=O)[C@@H](N)Cc1ccccc1)C(=O)NCC(=O)N[C@@H](CCCNC(=N)N)C(=O)O | HaCaT | CCK-8 | – | 100 µg/mL, 72 h, 0.4 % serum | – | viability | 114 ± 8.7% |
| CC1=CCC23OC2(C)CCC2C(C[N+](C)(C)C)C(=O)OC2C13.[I-] (centres unmarked) | BT-549 | cell growth or viability, SRB | – | 8.3 µM | – | inhibition | 58.4% |
| COC(=O)c1ccc(-n2cc(CCCN(CCNc3ccnc4cc(Cl)ccc34)C(=O)CCC(=O)OC3OC4OC5(C)CCC6C(C)CCC(C3C)C46OO5)nn2)cc1 (centres unmarked) | CCRF-CEM | cell growth or viability, resazurin | – | 10 µM, 48 h | – | inhibition | 53% |
| O=C(CN1CCN(c2cc3c(cc2F)c(=O)c(C(=O)O)cn3C2CC2)CC1)Nc1ccc(Cl)cc1 | endometrial cancer cell lines | – | – | 10 µM, 24 h | baseline: untreated | cell cycle distribution | no effect |
| COC(=O)C[C@](O)(CCCC(C)(C)OC(C)=O)C(=O)O[C@@H]1C(OC)=C[C@]23CCCN2CCc2cc4c(cc2[C@H]13)OCO4 | CAPAN-1, KP-4, MIA PaCa-2 | annexin V/PI flow cytometry | – | 1 µM, 72 h | – | apoptotic cells | > 90% |
| CC(=O)Oc1cccc(/C=C/C(=O)Nc2nc(=O)n([C@@H]3O[C@H](C)[C@@H](OC(C)=O)[C@H]3OC(C)=O)cc2F)c1 | BXPC-3 | cell viability, MTT | – | – | baseline: NHDF fibroblasts over BXPC-3 | selectivity index | 2.98 |
| CC12CCC3(CCC(=O)OCCNc4ccnc5cc(Cl)ccc45)C(C)(OOC3(C)O1)O2 | CCRF-CEM | cell growth or viability, resazurin | – | 10 µM, 48 h | – | inhibition | 34.1% |
| Cc1cc(CS(=O)(=O)c2ccccc2)cc(OCc2ccc(CN3CCC[C@@H]3CO)cc2)c1 | U2OS | fluo-4 | – | 30 µM, added: GPN 300 µM | – | GPN-evoked Ca2+ release | 94 ± 4% |
| C=CC(=O)Nc1cc(-c2nn(C3CCC(N4CCN(C(C)=O)CC4)CC3)c3ncnc(N)c23)ccc1Oc1ccccc1 (centres unmarked) | HCC2935 | cell growth or viability | – | – | – | EC50 | > 10000 nM |
| O=C(O)CCC(NP(=O)(O)OCCC[C@@H](NC(=O)CCC(NC(=O)CCCCCNC(=O)CCCCCNC(=O)c1ccc([18F])cc1)C(=O)O)C(=O)O)C(=O)O (some centres unmarked) | CWR22Rv1 | – | – | 2 h | – | internalized fraction | 91.3% |
| CN[C@](C)(C[18F])C(=O)O | SK-OV-3 | amino acid uptake | – | concentration not given, added: BCH 10 mM | baseline: control | inhibition | 6% |
| CC[C@H](C)[C@H](NC(C)=O)C(=O)N[C@@H](CC(N)=O)C(=O)N[C@@H](Cc1c[nH]c2ccccc12)C(=O)N[C@@H](Cc1c[nH]cn1)C(=O)NCC(=O)N[C@H](C(=O)N[C@@H](C)C(=O)N[C@@H](Cc1c[nH]cn1)C(=O)N[C@@H](CCSC)C(=O)N[C@@H](C)C(=O)N[C@@H](CCCCN)C(=O)N[C@@H](CCCCN)C(=O)N[C@@H](CC(C)C)C(=O)N[C@@H](CC(C)C)C(N)=O)[C@@H](C)CC | human erythrocytes | haemolysis | – | added: Zn(II) 300 µM | – | Hill coefficient | 1.9 ± 0.2 |
| FC(F)(F)c1ccc2nc3c4cccnc4c4ncccc4c3nc2c1.[Cl-].[Cl-].[Ru+2].c1ccncc1.c1ccncc1.c1ccncc1.c1ccncc1 | L-O2 | – | – | 5 µM, 24 h, with irradiation | – | viability | 90% |
